Measurements pooled from the literature.
Compare with care: the assays were run in different laboratories. ± marks the error that the study gave.

| SMILES | assay | test system | conditions | how to read | endpoint | result |
| --- | --- | --- | --- | --- | --- | --- |
| COc1ccc(-c2cc(=O)c3c(OC)c(OC)c(OC)cc3o2)cc1 | – | C57BL/6 mouse, male, small intestine | oral, 1% w/w in diet, 6 weeks, orange peel extract diet | reference: content in orange peel | tissue to peel content ratio | 1.68% |
| CC(C)C[C@H](NC(=O)[C@H](CCC(=O)O)NC(=O)[C@H](CCC(=O)O)NC(=O)[C@H](CC(=O)O)NC(=O)[C@H](CCC(=O)O)NC(=O)[C@H](CCC(=O)O)NC(=O)[C@H](CCC(=O)O)NC(=O)[C@@H](N)CC(=O)O)C(=O)O | – | rat, plasma | intranasal, 5.5 mg/kg single dose, 90 min | – | plasma concentration | 31.9 ng/mL |
| Cc1ccc(Nc2nc(-c3ccc(-c4ccccc4)cc3)cs2)nc1 | – | FVB mouse | oral in liquid diet, 210 mg/kg/day, 14 days | – | lethal toxicity | not toxic |
| N[C@@H](CCCCNP(=O)(O)O)C(=O)O | – | – | 100 µM, 180 min, no enzyme | – | non-enzymatic hydrolysis | > 40% |
| CCCCCOc1ccc(-c2ccc(-c3ccc(C(=O)N[C@H]4C[C@@H](O)[C@@H](O)NC(=O)[C@@H]5[C@@H](O)[C@@H](C)CN5C(=O)[C@H]([C@@H](C)O)NC(=O)[C@H]([C@H](O)[C@@H](O)c5ccc(O)cc5)NC(=O)[C@@H]5C[C@@H](O)CN5C(=O)[C@H]([C@@H](C)O)NC4=O)cc3)cc2)cc1 | – | human neonates, plasma | intravenous, 3 mg/kg loading dose, 24 h | – | trough concentration | 1900 ng/mL |
| CN[C@@](C)(C[18F])C(=O)O | – | SCID mouse A549 xenograft, spleen | 120 min, post injection | – | tissue uptake | 6.2 ± 0.4 %ID/g |
| Cc1cccc(C)c1OCC(=O)N[C@@H](Cc1ccccc1)[C@@H](O)C[C@H](Cc1ccccc1)NC(=O)[C@H](C(C)C)N1CCCNC1=O | – | male Sprague-Dawley rats, plasma | oral, 160 mg/kg, together with: QPD 6 g/kg oral, 30 min before | – | AUC(0-inf) | 12400 ng·h/mL |
| CSCC[C@@H]1NC(=O)[C@H](CC(=O)O)NC(=O)CNC(=O)[C@H](CCCNC(=N)N)NC(=O)[C@H](C)NC(=O)[C@H](CCC(=O)O)NC(=O)[C@H](CCCNC(=N)N)NC(=O)[C@@H]2CSSC[C@@H]3NC(=O)[C@H](CO)NC(=O)[C@H]([C@@H](C)O)NC(=O)[C@@H]4CCCN4C(=O)[C@H](C)NC(=O)[C@H](Cc4c[nH]c5ccccc45)NC(=O)[C@H](CC(=O)O)NC(=O)CNC(=O)[C@H](CCCNC(=N)N)NC(=O)CNC(=O)[C@H](CCC(N)=O)NC(=O)[C@@H]4CCCN4C(=O)[C@@H](NC(=O)CNC(=O)C(C)F)CSSC[C@H](NC(=O)CNC(=O)[C@H](C)NC(=O)[C@H](CC(C)C)NC(=O)[C@H](CSSC[C@@H](C(=O)NCC(N)=O)NC(=O)[C@H]([C@@H](C)O)NC(=O)[C@H](CCCNC(=N)N)NC(=O)[C@@H]4CCCN4C1=O)NC(=O)[C@H](CC(=O)O)NC(=O)[C@H](CO)NC(=O)[C@H](CC(=O)O)NC(=O)[C@H](CCC(N)=O)NC(=O)[C@H](CO)NC3=O)C(=O)N[C@@H](C(C)C)C(=O)N2 (stereo partly drawn) [fluorine-18 labelled] | – | nude mice U-87 MG xenograft, heart | intravenous, 2.5 h | – | tissue uptake | 0.29 ± 0.05 %ID/g |
| O=c1oc2c(O)c(O)cc3c(=O)oc4c(O)c(O)cc1c4c23 | potentiometric titration | water, extrapolated from methanol/water | 25 °C | – | pKa1 | 3.63 |
| COC(=O)N[C@H](C(=O)N1CCC[C@H]1C(=O)Nc1ccc([C@@H]2CC[C@@H](c3ccc(NC(=O)[C@@H]4CCCN4C(=O)[C@@H](NC(=O)OC)C(C)C)cc3)N2c2ccc(C(C)(C)C)cc2)cc1)C(C)C | – | healthy volunteers | oral, dose not given, with digoxin | – | AUCtau | 1460 ng·h/mL |
| Clc1ccc(-c2ccccc2)cc1 | – | female Sprague-Dawley rat, serum | inhalation, 23 µg/rat, 0 h | – | free thyroxine | 31 ± 14 pmol/L |
| [123I]c1cncc(OC[C@@H]2CCN2)c1 | SPECT | human, thalamus | intravenous bolus, 9.3 mCi | reference: plasma | tissue/plasma ratio | 23.2 |

Repeated from above:
| SMILES | assay | test system | conditions | how to read | endpoint | result |
| --- | --- | --- | --- | --- | --- | --- |
| Cc1ccc(Nc2nc(-c3ccc(-c4ccccc4)cc3)cs2)nc1 | – | FVB mouse | oral in liquid diet, 210 mg/kg/day, 14 days | – | lethal toxicity | not toxic |
| N[C@@H](CCCCNP(=O)(O)O)C(=O)O | – | – | 100 µM, 180 min, no enzyme | – | non-enzymatic hydrolysis | > 40% |
